Results pooled from the literature.
Each numbered part is a random draw from the data of one study; scales do not carry over between parts. Substitutions count along the parent as printed.

Series 1 — target: CCNE2, cyclin fold, Cln2 fusion (human); method: yeast growth competition, sequencing; matrix: yeast; setting: strong parent motif; relative to: not given; reading: higher = stronger binding
Starting sequence: BRCA2 docking peptide (human); PSIKRNLLNEFDR
Change | normalised enrichment score
PSIPRNLLNEFDR [K4P] | 0.411
GSIKRNLLNEFDR [P1G] | 1.62
PSIKRNLQNEFDR [L8Q] | 0.54
PSIKRNLLPEFDR [N9P] | 2.02
PSIKRNLLNEFDE [R13E] | 1.44
PSIKRNLLNEFWR [D12W] | 2
PSIKRNWLNEFDR [L7W] | 0.434
PHIKRNLLNEFDR [S2H] | 1.09
LSIKRNLLNEFDR [P1L] | 1.23
TSIKRNLLNEFDR [P1T] | 1.52
PSIKRNLLNETDR [F11T] | -0.224

Series 2 — target: CREBRF, bZIP domain (human); method: DHFR protein complementation; matrix: yeast; relative to: wild-type JUN-FOS pair; reading: higher = stronger binding
Setting: single substitutions, most at no-binding floor
Starting sequence: JUN, bZIP domain (human); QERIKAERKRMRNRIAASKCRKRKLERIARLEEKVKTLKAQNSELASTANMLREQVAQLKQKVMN; partner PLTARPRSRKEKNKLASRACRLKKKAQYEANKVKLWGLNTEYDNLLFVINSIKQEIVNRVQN
Change | binding fitness
K34C | -1.32 natural log
L45I | -1.62 natural log
T48M | -1.1 natural log
Q55W | -1.48 natural log
K36S | -1.54 natural log
S47K | -1.41 natural log
Q41M | -1.52 natural log
S47E | -1.34 natural log
R30V | -1.33 natural log

Series 3 — method: protein binding microarray; form: double-stranded DNA, one strand shown; matrix: in vitro; concentration: not given; relative to: not given; reading: higher = stronger binding
Target: Histone acetyltransferase KAT6A, both winged helices, GST fusion (KAT6A, Homo sapiens, UniProt Q92794, residues 1-181)
Setting: 8-mer, flanks averaged, mean of 2 arrays, mostly near background
Target sequence (chain): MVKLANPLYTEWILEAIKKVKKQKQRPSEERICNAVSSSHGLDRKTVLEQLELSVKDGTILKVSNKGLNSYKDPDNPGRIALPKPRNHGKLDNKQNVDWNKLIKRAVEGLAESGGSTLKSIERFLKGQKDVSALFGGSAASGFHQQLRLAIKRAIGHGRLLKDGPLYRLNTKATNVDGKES
Strand | E-score
ATATGCTC | -0.0921
GGAAAGGA | 0.00489
CAGATAAG | -0.0817
CTGCACGC | 0.146
AGGCCACG | -0.0326
AATCTGTG | -0.0516
AGAAGATA | 0.071
AAGTAGTA | -0.0897
ATGGTCCA | -0.157
CGCAATGC | 0.232
ACTGCATA | -0.0876

Other studies, line by line
Molecule | target | assay | system | setting | how to read | quantity | result
PhoQ, residues 284 288 289 292 302 303 GANMMA | PhoP, residues 12 14 15 18 19 AGCRL (Escherichia coli, UniProt P23836) | Sort-seq, refers to: YFP reporter | E. coli | PhoQ-PhoP variant library, together with: 10 µM Mg2+ | relative to: high Mg2+ state, higher = stronger signaling | fold induction | 6.37

Repeated from above (series 3):
Strand | E-score
AGAAGATA | 0.071
AAGTAGTA | -0.0897
